Assay results collected from several papers.
Numbered parts are unrelated; each lists some results of a single study.
Chain of UniProt P28222 (whole entry, looked up): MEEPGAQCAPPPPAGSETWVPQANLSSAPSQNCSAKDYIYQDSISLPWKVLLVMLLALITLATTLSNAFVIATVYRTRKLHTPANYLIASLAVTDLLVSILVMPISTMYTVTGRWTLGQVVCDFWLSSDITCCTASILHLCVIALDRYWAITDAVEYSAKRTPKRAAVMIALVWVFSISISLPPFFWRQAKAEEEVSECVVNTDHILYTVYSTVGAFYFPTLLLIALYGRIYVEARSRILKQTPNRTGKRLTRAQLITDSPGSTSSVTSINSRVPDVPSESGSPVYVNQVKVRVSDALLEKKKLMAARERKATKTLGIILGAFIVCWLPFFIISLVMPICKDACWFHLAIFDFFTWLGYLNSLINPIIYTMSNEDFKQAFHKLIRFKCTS

Study 1
Target: Serine/threonine-protein kinase MARK1 (MARK1, Homo sapiens, UniProt Q9P0L2)
Chain of UniProt Q9P0L2 (whole entry, looked up): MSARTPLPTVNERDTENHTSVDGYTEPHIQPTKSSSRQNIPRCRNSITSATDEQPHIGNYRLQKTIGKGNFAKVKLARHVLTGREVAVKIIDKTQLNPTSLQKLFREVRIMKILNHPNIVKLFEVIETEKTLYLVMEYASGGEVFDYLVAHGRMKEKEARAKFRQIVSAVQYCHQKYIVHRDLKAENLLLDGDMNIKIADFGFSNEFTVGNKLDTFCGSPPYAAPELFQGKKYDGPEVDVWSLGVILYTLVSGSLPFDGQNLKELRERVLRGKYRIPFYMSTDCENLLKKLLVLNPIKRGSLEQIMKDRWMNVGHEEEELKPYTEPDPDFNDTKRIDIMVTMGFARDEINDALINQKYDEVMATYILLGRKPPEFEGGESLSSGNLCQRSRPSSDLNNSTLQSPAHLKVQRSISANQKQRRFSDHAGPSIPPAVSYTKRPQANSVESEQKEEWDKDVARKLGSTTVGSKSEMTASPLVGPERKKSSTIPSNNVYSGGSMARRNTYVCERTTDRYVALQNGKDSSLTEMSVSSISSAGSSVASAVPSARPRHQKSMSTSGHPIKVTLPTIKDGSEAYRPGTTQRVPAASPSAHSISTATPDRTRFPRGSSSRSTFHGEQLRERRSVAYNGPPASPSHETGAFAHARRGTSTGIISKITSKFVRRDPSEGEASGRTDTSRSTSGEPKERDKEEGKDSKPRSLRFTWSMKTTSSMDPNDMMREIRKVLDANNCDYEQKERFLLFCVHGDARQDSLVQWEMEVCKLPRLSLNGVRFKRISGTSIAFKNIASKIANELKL
Effect on: enzyme activity
Mode: inhibitor
Concentration: 0.5 µM
Relative to: control
SMILES	remaining activity
Nc1ncnc2c1cnn2-c1ccccc1	94.8%
CC[n+]1c(/C=C/N(C)c2ccccc2)n(-c2ccccc2)c2ccc(-c3nc4ccccc4s3)cc21	104%
COc1ccc(S(=O)(=O)N(CCO)c2ccccc2CN(C)CC=Cc2ccc(Cl)cc2)cc1	98.4%
CC(C)(C)n1nc(Cc2cccc3ccccc23)c2c(N)ncnc21	95.8%
Nc1nccc(-c2c(-c3ccc(F)cc3)ncn2C2CCNCC2)n1	97.9%
CCCC(=O)Oc1ccc2[nH]c(C(=O)c3cc4ccccc4[nH]3)cc2c1	96.4%
Fc1ccc(-c2nc3n(c2-c2ccncc2)CCS3)cc1	102%
Cc1cncc2cccc(S(=O)(=O)N3CCCN(C(=O)CN)C[C@@H]3C)c12	89.7%
O=S(=O)(NCCNC/C=C/c1ccc(Br)cc1)c1cccc2cnccc12	91.2%

Study 2
Compound: C=CCc1ccc(O)c(-c2cc(CC=C)ccc2O)c1
Effect on: chloride current
Method: whole-cell voltage clamp
ANO1 del476-501/R541D: Anoctamin-1 (ANO1, Homo sapiens, UniProt Q5XXA6, del476-501/R541D)
Chain of UniProt Q5XXA6 (whole entry, unmodified, looked up): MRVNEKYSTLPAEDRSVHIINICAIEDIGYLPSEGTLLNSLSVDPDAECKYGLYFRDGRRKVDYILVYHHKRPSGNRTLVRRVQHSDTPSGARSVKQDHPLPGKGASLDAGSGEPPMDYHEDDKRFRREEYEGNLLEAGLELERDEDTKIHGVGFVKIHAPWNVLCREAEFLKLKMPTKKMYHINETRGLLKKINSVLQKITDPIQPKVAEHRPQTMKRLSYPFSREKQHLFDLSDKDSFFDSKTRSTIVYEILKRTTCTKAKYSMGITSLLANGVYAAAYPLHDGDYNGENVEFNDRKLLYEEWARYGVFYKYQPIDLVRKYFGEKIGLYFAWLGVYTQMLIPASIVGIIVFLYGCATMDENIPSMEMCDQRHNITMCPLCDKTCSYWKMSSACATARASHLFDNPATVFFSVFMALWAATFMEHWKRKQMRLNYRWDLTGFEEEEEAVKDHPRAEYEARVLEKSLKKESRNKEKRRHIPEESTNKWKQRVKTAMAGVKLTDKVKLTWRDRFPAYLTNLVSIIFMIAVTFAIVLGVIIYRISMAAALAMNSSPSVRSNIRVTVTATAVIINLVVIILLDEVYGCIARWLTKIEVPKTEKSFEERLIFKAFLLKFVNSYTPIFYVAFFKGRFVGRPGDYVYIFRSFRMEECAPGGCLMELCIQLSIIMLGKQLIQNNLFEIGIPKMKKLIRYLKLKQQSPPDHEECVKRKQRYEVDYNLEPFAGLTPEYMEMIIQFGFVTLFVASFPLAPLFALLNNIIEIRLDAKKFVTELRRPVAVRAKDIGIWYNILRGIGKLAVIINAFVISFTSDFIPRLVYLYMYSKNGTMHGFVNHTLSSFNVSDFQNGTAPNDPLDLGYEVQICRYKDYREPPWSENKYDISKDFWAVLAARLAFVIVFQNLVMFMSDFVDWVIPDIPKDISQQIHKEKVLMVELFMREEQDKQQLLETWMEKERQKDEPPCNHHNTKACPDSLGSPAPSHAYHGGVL
ANO1 del476-501/F803A: Anoctamin-1 (ANO1, Homo sapiens, UniProt Q5XXA6, del476-501/F803A)
target	test	conditions	IC50 [µM]
Anoctamin-1 (ANO1, Homo sapiens, UniProt Q5XXA6, del476-501/M544A)		membrane voltage -60 mV	99
Anoctamin-1 (ANO1, Homo sapiens, UniProt Q5XXA6, del476-501/R541K)	inhibitor	R515K mutant at 100 mV	29.4
Anoctamin-1 (ANO1, Homo sapiens, UniProt Q5XXA6, del476-501/E650A)		membrane voltage 80 mV	17.1
ANO1 del476-501/R541D	inhibitor	R515D mutant at 60 mV	203
ANO1 del476-501/F803A		membrane voltage 40 mV	18.1
Anoctamin-1 (ANO1, Homo sapiens, UniProt Q5XXA6, del476-501)		membrane voltage -20 mV, together with: 300 nM Ca2+	18.9
ANO1 del476-501/F803A	inhibitor	mutant F777A at 100 mV, together with: 300 nM Ca2+	20.7
Anoctamin-1 (ANO1, Homo sapiens, UniProt Q5XXA6, del476-501/F646A)		membrane voltage -40 mV	19.7
ANO1 del476-501/R541D	inhibitor	R515D mutant at 20 mV	114

Study 3
Host: mouse
Medium: microsomes or S9
Concentration: 2 µM
Time: 0.5 h
Compound	remaining compound [%]
CCC(C)NC(=O)Cn1nc2n(CCC(=O)NCC(C)C)c(=O)c3ccccc3n2c1=O (centres unmarked)	40.9
COc1cc2c(cc1OC)-c1cc(-c3ccccc3F)cn1CC2	4.92
O=C(O)c1ccc(-c2noc3ccc(-c4ccc(O)cc4)cc23)cc1	80.4
Cc1cc(C23CC4CC(CC(C4)C2)C3)cc2sc(N)nc12	47.9
CC(C)OCCCNCc1ccccc1OCc1ccc(Cl)cc1Cl	18.8
OC(CN1CCCCCC1)CN(c1ccccc1)c1ccccc1 (centres unmarked)	7.8
O=C(c1ccc(-c2ncc[nH]2)s1)N1CC[C@@H](c2ccc(F)cc2)[C@H](O)C1	30.8
CCOC(=O)N1CCN(CC(O)COc2ccc(C(C)C)c(C)c2)CC1 (centres unmarked)	5.96
O=C(c1ccccc1)c1cc(Cl)ccc1Nc1cc(Br)cc2c1N(c1ncccn1)CC2	16.9
Cc1cccc(OCC(O)Cn2nc(C)c3c(C)onc3c2=O)c1 (centres unmarked)	22.8
COc1cc(=O)n(C)cc1C(=O)NCCOc1ccc(F)cc1	81.5
CC(=O)c1ccc(N2CCC(OC(=O)CCc3nnc[nH]3)CC2)cc1	0.0607

Further values, each from its own experiment
Structure (SMILES)	target	test	conditions	endpoint	result
C[C@@H]1CN(c2ccc(-c3cc(C(=O)NCCOCCOCCOCCOCCNC(=O)Cn4cc(-c5[nH]cc(C(=O)N[C@@H](CC(N)=O)c6ccc(F)c(Cl)c6)c5-c5ccc(Cl)cc5F)cn4)ccc3F)cc2NC(=O)c2c[nH]c(=O)cc2C(F)(F)F)C[C@H](C)N1C	WD repeat-containing protein 5 (WDR5, Homo sapiens, UniProt P61964)	SPR		association rate constant	43400 M⁻¹ s⁻¹
COc1cccc(NC(=O)c2nc3scc(CN(C)Cc4ccccc4)c3c(=O)[nH]2)c1	5-hydroxytryptamine receptor 1B (HTR1B, Homo sapiens, UniProt P28222)	ligand displacement	10 µM	inhibition	-2.26%

Some of these lines once more (study 1):
SMILES	remaining activity
Nc1ncnc2c1cnn2-c1ccccc1	94.8%
CC[n+]1c(/C=C/N(C)c2ccccc2)n(-c2ccccc2)c2ccc(-c3nc4ccccc4s3)cc21	104%
COc1ccc(S(=O)(=O)N(CCO)c2ccccc2CN(C)CC=Cc2ccc(Cl)cc2)cc1	98.4%
CC(C)(C)n1nc(Cc2cccc3ccccc23)c2c(N)ncnc21	95.8%
Nc1nccc(-c2c(-c3ccc(F)cc3)ncn2C2CCNCC2)n1	97.9%
